Results gathered from unrelated publications.
Numbers after ± are the reported error. Non-standard residues stand in square brackets, D forms with d. Where no end group is shown, it is not given here. No end group written: not given here. The star is where a group is joined.
Kelch domain-containing protein 2: Kelch domain-containing protein 2 (UniProt Q9Y2U9)
Sequence of UniProt Q9Y2U9 (whole entry, looked up): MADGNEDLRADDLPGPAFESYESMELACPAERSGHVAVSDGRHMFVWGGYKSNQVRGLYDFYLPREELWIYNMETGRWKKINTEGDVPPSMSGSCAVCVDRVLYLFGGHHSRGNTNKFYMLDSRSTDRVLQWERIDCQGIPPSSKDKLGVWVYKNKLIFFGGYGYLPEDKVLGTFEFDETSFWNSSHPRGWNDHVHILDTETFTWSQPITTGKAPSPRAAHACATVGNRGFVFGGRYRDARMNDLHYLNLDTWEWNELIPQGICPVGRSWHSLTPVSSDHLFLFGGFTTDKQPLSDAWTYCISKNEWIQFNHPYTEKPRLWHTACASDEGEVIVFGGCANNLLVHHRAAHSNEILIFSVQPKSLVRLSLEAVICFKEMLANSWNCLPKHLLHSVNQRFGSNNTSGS
OPRK1: Kappa-type opioid receptor (OPRK1, Homo sapiens, UniProt P41145)
Sequence of UniProt P41145 (whole entry, looked up): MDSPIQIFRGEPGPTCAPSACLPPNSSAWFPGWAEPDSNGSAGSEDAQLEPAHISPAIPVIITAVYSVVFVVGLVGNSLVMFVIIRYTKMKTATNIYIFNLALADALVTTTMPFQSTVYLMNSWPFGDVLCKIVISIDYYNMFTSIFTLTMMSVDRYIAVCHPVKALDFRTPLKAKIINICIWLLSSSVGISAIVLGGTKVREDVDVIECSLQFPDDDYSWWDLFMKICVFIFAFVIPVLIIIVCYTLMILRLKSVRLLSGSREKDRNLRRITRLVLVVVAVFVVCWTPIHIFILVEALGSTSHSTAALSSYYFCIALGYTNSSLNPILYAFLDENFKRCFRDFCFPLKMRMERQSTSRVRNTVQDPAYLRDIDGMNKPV
ESR1: Estrogen receptor (ESR1, Homo sapiens, UniProt P03372)
Sequence of UniProt P03372 (whole entry, looked up): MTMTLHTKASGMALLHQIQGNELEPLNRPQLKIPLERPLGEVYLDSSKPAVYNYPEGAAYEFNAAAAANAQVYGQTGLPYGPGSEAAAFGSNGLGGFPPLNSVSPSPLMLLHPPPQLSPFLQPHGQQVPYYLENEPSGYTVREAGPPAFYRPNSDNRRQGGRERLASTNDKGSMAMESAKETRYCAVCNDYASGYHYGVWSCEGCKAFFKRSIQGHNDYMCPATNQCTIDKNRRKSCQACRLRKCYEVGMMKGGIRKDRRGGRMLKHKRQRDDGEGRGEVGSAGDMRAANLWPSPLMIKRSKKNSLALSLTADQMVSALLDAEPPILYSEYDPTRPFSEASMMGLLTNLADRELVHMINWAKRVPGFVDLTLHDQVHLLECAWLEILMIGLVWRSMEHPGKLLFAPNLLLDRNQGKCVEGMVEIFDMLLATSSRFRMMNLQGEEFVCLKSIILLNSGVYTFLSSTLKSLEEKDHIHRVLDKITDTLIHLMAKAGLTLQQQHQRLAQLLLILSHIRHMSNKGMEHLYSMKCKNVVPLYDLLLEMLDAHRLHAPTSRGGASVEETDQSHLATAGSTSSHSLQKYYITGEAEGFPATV
CNR2: Cannabinoid receptor 2 (CNR2, Homo sapiens, UniProt P34972)
Sequence of UniProt P34972 (whole entry, looked up): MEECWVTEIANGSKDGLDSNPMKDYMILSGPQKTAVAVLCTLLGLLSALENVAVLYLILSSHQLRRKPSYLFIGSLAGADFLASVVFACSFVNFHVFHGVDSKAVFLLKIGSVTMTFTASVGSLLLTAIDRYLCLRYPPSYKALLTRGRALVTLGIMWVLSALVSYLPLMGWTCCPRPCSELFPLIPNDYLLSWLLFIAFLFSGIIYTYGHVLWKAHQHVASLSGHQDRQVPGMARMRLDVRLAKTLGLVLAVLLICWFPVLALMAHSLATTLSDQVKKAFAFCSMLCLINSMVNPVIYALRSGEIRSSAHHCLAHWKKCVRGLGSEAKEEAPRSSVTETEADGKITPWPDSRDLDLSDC
ESR2: Estrogen receptor beta (ESR2, Homo sapiens, UniProt Q92731)
Sequence of UniProt Q92731 (whole entry, looked up): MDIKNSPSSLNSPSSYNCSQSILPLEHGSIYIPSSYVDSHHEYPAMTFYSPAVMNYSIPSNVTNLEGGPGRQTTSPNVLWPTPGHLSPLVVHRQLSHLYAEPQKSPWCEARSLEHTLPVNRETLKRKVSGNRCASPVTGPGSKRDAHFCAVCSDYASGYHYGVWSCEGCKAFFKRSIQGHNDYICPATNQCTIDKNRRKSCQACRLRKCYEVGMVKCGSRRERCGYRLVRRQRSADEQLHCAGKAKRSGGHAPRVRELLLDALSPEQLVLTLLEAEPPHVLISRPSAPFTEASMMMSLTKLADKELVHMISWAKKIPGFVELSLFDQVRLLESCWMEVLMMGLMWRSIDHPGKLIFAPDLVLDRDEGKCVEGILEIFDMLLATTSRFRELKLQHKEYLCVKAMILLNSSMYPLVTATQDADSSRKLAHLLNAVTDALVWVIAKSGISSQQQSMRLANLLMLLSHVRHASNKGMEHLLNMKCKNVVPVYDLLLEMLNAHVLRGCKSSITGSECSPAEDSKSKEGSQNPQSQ
Aequorin-1 C152S/C159S/C187S: Aequorin-1 (Aequorea victoria, UniProt P07164, C152S/C159S/C187S)
Sequence of UniProt P07164 (whole entry, unmodified, looked up): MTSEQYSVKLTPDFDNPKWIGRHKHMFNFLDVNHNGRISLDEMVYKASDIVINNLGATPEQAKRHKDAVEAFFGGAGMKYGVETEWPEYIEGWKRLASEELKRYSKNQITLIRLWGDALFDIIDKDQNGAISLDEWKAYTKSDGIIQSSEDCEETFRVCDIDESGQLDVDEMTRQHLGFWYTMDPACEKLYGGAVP
Sequence of UniProt P14780 (whole entry, looked up): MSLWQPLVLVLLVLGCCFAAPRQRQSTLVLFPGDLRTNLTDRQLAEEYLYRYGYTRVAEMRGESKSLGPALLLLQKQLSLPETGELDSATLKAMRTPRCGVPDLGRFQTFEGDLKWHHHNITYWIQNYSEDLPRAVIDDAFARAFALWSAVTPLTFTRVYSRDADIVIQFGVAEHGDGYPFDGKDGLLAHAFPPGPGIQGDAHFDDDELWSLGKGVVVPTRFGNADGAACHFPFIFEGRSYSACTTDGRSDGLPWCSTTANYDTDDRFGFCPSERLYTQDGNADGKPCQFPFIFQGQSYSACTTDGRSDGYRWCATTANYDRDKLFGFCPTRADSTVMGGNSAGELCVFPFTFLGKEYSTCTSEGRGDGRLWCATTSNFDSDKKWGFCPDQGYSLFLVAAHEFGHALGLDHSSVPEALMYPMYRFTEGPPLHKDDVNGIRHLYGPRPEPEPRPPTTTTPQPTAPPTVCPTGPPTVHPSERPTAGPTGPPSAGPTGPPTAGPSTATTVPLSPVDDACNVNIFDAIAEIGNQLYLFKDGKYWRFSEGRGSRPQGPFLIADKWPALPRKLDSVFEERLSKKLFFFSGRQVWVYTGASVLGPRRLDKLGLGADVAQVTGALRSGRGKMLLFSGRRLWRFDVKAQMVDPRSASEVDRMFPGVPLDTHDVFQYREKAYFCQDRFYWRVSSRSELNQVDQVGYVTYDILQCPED
Sequence of UniProt W7FI62 (whole entry, looked up): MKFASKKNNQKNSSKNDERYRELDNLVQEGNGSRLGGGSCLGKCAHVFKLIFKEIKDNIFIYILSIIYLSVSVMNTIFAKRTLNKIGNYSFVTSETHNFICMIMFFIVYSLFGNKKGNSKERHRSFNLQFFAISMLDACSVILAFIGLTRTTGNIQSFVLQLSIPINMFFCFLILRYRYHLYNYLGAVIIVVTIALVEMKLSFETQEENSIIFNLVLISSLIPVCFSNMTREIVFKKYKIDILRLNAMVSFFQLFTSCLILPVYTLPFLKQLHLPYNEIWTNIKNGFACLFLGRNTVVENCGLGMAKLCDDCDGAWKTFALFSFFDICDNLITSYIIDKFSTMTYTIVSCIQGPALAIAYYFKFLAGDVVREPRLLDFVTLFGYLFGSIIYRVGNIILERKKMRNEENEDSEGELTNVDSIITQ
Sequence of UniProt P41240 (whole entry, looked up): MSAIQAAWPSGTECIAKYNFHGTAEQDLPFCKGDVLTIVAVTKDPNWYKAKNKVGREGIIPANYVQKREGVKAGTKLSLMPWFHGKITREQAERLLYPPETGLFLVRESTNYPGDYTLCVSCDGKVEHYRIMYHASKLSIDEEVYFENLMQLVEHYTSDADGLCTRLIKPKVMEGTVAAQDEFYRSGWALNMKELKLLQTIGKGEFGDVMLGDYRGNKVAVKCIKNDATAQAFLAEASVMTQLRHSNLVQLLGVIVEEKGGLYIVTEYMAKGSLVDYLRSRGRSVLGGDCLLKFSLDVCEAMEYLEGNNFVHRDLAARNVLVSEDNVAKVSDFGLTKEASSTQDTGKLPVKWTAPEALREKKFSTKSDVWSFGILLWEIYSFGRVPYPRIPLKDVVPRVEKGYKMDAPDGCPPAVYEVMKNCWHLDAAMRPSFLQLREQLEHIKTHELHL
Sequence of UniProt O95476 (whole entry, looked up): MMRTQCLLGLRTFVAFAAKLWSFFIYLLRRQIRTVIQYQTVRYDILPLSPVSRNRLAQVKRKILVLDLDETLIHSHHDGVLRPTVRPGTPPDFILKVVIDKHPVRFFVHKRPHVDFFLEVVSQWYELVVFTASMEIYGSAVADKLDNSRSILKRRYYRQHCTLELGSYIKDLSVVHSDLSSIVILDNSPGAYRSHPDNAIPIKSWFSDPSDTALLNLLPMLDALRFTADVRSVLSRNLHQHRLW
Sequence of UniProt P08913 (whole entry, looked up): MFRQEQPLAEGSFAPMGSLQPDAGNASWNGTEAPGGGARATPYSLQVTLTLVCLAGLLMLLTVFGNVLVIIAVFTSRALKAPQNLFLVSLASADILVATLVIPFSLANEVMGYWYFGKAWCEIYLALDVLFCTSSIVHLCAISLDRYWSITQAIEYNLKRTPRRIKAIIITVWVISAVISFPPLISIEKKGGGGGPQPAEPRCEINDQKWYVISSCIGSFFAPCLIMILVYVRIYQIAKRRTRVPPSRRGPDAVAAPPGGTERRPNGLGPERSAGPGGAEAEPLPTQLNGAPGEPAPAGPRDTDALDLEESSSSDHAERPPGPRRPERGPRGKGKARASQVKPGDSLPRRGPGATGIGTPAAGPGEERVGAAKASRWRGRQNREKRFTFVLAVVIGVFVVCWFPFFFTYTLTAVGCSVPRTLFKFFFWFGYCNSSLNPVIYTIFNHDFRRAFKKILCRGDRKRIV

`CN(C)c1cccc2c(S(=O)(=O)N[C@@H](CCC(=O)O)C(=O)N[C@@H](CC(N)=O)C(=O)N[C@@H](CCC(N)=O)C(=O)N[C@@H](CCCCN)C(=O)N[C@@H](CCC(=O)O)C(=O)N[C@@H](Cc3ccc(O)cc3)C(=O)N[C@@H](Cc3ccccc3)C(=O)N[C@@H](Cc3ccccc3)C(=O)O)cccc12` — result for “binding affinity fold change”: 6.7 (Rho guanine nucleotide exchange factor TIAM1, PDZ domain (TIAM1, Homo sapiens, UniProt Q13009); fluorescence anisotropy; concentration not given, dansylated peptide; baseline: model peptide Kd over peptide Kd).
`KVALGAAGG` — result for “fraction of protein bound”: 1.7% (Kelch domain-containing protein 2; native mass spectrometry; peptide, 200 mM ammonium acetate; 20 µM Kelch domain-containing protein 2, pH 7; baseline: total Kelch domain-containing protein 2 signal).
Under “activation energy change”, `O=P(O)(O)OC[C@@H](O)[C@@H](O)CO` is recorded as 2.8 kcal/mol (Orotidine 5'-phosphate decarboxylase (Saccharomyces cerevisiae S288c, UniProt P03962, T100A); dianion-activated decarboxylation; baseline: wild type).
With `O[C@@H](CN1CC[C@H](CCOC(c2ccccc2)c2ccccc2)[C@@H](O)C1)c1ccccc1` the Ki was 27.5 nM (Transporter (Slc6a2, Rattus norvegicus, UniProt Q63380); noradrenaline uptake, inhibitor; rat hippocampus; added: [3H]noradrenaline).
The binding titer of `SIFDWPR (disulfide (positions not given here)) (cyclic, disulfide)` is reported as 1.7e+06 M13/mL (HIV-1 neutralising antibody 4E10; phage binding, M13 phage ELISA; concentration not given; lower = stronger binding).
Under “lowest effective concentration”, `CCCCCc1cc(O)c(C/C=C(\C)CCC=C(C)C)c(O)c1` is recorded as 4 µM (SCN9A (Homo sapiens, UniProt Q15858); peak conductance decrease, automated patch clamp; baseline: vehicle).
`CC(C)[C@@H](CN1CCN(c2cccc(O)c2)[C@@H](C)C1)NC(=O)c1ccc(Oc2cccc(O)c2)cc1` gave a Ke of 1.85 ± 0.51 nM (OPRK1; antagonist; CHO; added: U69593).
With `CC1(C)Oc2cc([C@]34CC5CC(C[C@@](CN=[N+]=[N-])(C5)C3)C4)cc(O)c2[C@@H]2C[C@H](O)CC[C@H]21` the covalent labeling was 67% (Cnr1 (Rattus norvegicus, UniProt P20272); radioligand binding Bmax reduction; rat brain membranes; 10-fold Ki, added: [3H]CP-55,940; baseline: untreated).
`Cc1cccc(Nc2ccc3c(c2)C(c2ccccc2F)=NC(C)C(=O)N3)c1` (centres unmarked) has an inhibition of 65% (ADRA2A (Homo sapiens, UniProt P08913); ligand displacement, radioligand; 10 µM).
For `Nc1nc2c(c(=O)[nH]1)N1CN(c3ccc(C(=O)N[C@@H](CCC(=O)O)C(=O)O)cc3)C[C@H]1CN2`, “observed rate constant” read 11 ± 2 s⁻¹ (5,10-methylenetetrahydrofolate reductase (metF, Escherichia coli, UniProt P0AEZ1, F223A); oxidative half-reaction, fast phase, substrate, stopped-flow; 25 °C).
`Cc1cc(-c2ccc(-c3ccc(O)c(C)c3)[se]2)ccc1O` gave an efficacy of 103 ± 28% (ESR1; antagonist; HEK293T; highest tested concentration, added: estradiol 10 nM; baseline: estradiol alone).
`CCCCCCCCCCCCCC(=O)O[C@@H]1[C@@H](C)[C@@]2(O)[C@@H](C=C(CO)C[C@]3(O)C(=O)C(C)=C[C@@H]23)[C@@H]2C(C)(C)[C@]12OC(C)=O` gave a phosphorylation level of 202 ± 34% (Yes kinase, rat; measured: Yes pY416; 1 µM, 5 min; baseline: untreated control).
With `DDESEYINIPDGE` the kcat/Km was 130 M⁻¹ s⁻¹ (CSK (Homo sapiens, UniProt P41240); substrate, coupled enzyme; peptide; pH 7.4, room temperature, added: 1 mM ATP, 5 mM MnCl2).
`DNMNT[pS]EDE (phospho-Ser6; pS = N[C@@H](COP(=O)(O)O)C(=O)O)` has a kcat of over 1 s⁻¹ (CTD nuclear envelope phosphatase 1 (CTDNEP1, Homo sapiens, UniProt O95476); substrate, MESG-coupled phosphate release; 25 °C).
With `CC(C)(NC(=O)c1nn(Cc2ccc(F)cc2)c2ccccc12)c1cccc(C(N)=O)c1` the Emax was 41 ± 2% (CNR2; calcium mobilization, agonist; CHO-K1 expressing Gαq16; baseline: CP55,940 maximum).
The Kt of `C[C@H](CCC(=O)NCC(=O)O)[C@H]1CC[C@H]2[C@@H]3[C@H](O)C[C@@H]4C[C@@H](O)CC[C@]4(C)[C@H]3CC[C@]12C` is reported as 59.5 µM (SLC10A2 (Homo sapiens, UniProt Q12908); substrate; MDCK transfected with SLC10A2; 10 min, 37 °C).
`Oc1ccc(-c2cc(Br)c(-c3ccc(O)cc3F)[se]2)c(F)c1` gave an efficacy of 59 ± 8% (ESR2; antagonist; HEK293T; highest tested concentration, 24 h, added: estradiol 10 nM; baseline: estradiol alone).
The kcat/Km of `YKKRLTVELT` is reported as 9 ± 6 M⁻¹ s⁻¹ (PAK4 (Homo sapiens, UniProt O96013); kinase activity, substrate; peptide).
The Ks of `O=c1[nH]c(/C=C/C2C=Nc3ccccc32)c([N+](=O)[O-])c(=O)[nH]1` (centres unmarked) is reported as 2.3 ± 0.1 µM (Riboflavin synthase (ribC, Escherichia coli, UniProt P0AFU8); enzyme activity, substrate; Escherichia coli, recombinant riboflavin synthase; pH 7.0).
For `Cc1cc(C(=O)N[C@H](CN2CCN(c3cccc(O)c3)[C@@H](C)C2)C(C)C)ccc1Oc1ccccc1`, the Ke was 0.63 ± 0.19 nM (OPRK1; antagonist; CHO; added: U69593).
For `COc1cccc2c1C(=O)c1c(O)c3c(c(O)c1C2=O)C[C@@](O)(C(C)=O)C[C@@H]3O[C@H]1C[C@H](N)[C@H](O)[C@H](C)O1`, the inhibition was 40.8% (SLC22A5 (Homo sapiens, UniProt O76082); transporter uptake, inhibitor; 500 µM).
With `CC(C)C[C@H](NC(=O)CNC(=O)[C@H](CC(C)C)NC(=O)[C@@H]1CCCN1C(=O)CNC(=O)[C@H](Cc1ccccc1)NC(=O)[C@H](Cc1ccccc1)NC(=O)Cc1ccc2ccccc2c1)C(=O)N[C@@H](CCCNC(=N)N)C(=O)N[C@@H](CO)C(=O)N[C@@H](CCCCN)C(=O)O` the hydrolysis product was 60% (MMP9 (Homo sapiens, UniProt P14780); substrate, HPLC; 500 µM, 72 h, pH 7.5, 37 °C).
`O=C(Cc1ccccc1I)NC1CCOC1=O` (centres unmarked) has an activation of -4% (lasR (Pseudomonas aeruginosa, UniProt P25084); reporter gene, agonist; Escherichia coli JLD271/pJN105L/pSC11; 100 µM; baseline: OdDHL 100 µM).
`Cc1cc(-c2cc(-c3ccc(O)c(C)c3)c(-c3ccc(O)c(C)c3)[se]2)ccc1O` has an efficacy of 82 ± 2% (ESR2; antagonist; HEK293T; highest tested concentration, 24 h, added: estradiol 10 nM; baseline: estradiol alone).
`O=C1C(O)=C([C@H]2CC[C@H](c3ccc(Cl)cc3)CC2)C(=O)c2ccccc21`: “inhibition of binding” “no inhibition” (CRT (Plasmodium falciparum, UniProt W7FI62); scintillation proximity; nanodiscs; 10 µM, added: [3H]-chloroquine and [3H]-piperaquine).
With `O=C(Nc1cccnn1)N1CCC(=Cc2cccc(Oc3ccc(C(F)(F)F)cn3)c2)CC1` the uptake reduction was 67 to 85% (Faah (Rattus norvegicus, UniProt P97612); ex vivo radioactivity; rat brain; intraperitoneal, 0.05 or 0.5 mg/kg, 1 h before tracer, [11C] tracer, 40 min sacrifice; higher = stronger blocking).
The Emax of `NC(=O)CN1CCC[C@@H](NC(=O)c2nn(Cc3ccc(F)cc3)c3ccccc23)C1` is reported as 93 ± 7% (CNR2; calcium mobilization, agonist; CHO-K1 expressing Gαq16; baseline: CP55,940 maximum).
The remaining activity of `CCOC(=O)OC(=O)OCC` is reported as 18 s⁻¹ (ADH1 (Saccharomyces cerevisiae, UniProt P00330, H45R); enzyme activity, inactivator; 90 µM, pH 8.0, 30 °C, turnover number).
For `CC[C@H]1O[C@]2(C)[C@H](OC(C)=O)[C@@]1(C)O[C@@H](/C=C/C=C/C=C/c1oc(=O)cc(OC)c1C)[C@@H]2O`, “dwell time rise constant” read 7.8 ± 1.2 ms (atpD, in F1Fo complex (Escherichia coli, UniProt P0ABB4); ATP hydrolysis, single-molecule FRET; liposome-reconstituted F1Fo-ATPase).
`CC(C)[C@@H](CN1CCN(c2cccc(O)c2)[C@@H](C)C1)NC(=O)c1ccc(Oc2ccc(O)cc2)cc1` has a Ke of 8.6 ± 3.7 nM (OPRK1; antagonist; CHO; added: U69593).
`WSHPQFEKGGGSGGGSGG` — result for “fraction of protein bound”: 0.9% (Kelch domain-containing protein 2; native mass spectrometry; peptide, 200 mM ammonium acetate; 20 µM Kelch domain-containing protein 2, pH 7; baseline: total Kelch domain-containing protein 2 signal).
With `Oc1ccc(-c2cc(-c3ccc(O)cc3)c(-c3ccc(O)cc3)[se]2)cc1` the efficacy was 23 ± 3% (ESR2; antagonist; HEK293T; highest tested concentration, 24 h, added: estradiol 10 nM; baseline: estradiol alone).
`GSSFLSPEHQRVQQRKESKKPPAKLQPK-{Gly(Biotin)} (not fully specified; biotin-labelled)` — result for acyl transfer: “inactive” (mouse GOAT H338N; substrate; peptide; 10 µM, 5 min).
`Nc1ccncc1` has a charge movement of 0.61 ± 0.03 e (Kcnma1 (Mus musculus, UniProt Q08460); K+ current, blocker, outside-out patch, oocytes; pH 7.0, open channel block fit, added: Ca2+ 300 µM).
For `SSAWSHPQFEKGGGSGGG`, “fraction of protein bound” read 0.4% (Kelch domain-containing protein 2; native mass spectrometry; peptide, 200 mM ammonium acetate; 20 µM Kelch domain-containing protein 2, pH 7; baseline: total Kelch domain-containing protein 2 signal).
`Cc1cc(-c2ccc(-c3cc(C)c(O)c(C)c3)[se]2)cc(C)c1O` has an efficacy of 86 ± 13% (ESR2; antagonist; HEK293T; highest tested concentration, 24 h, added: estradiol 10 nM; baseline: estradiol alone).
`Ac-QDEVD-pNA (N-acetyl, C-pNA; pNA = O=[N+]([O-])c1ccc(N*)cc1)` has a kcat of 1.53 ± 0.167 s⁻¹ (Caspase-6 (CASP6, Homo sapiens, UniProt P55212); substrate, colorimetric p-nitroanilide release; pH 7.25).
For `Ac-RYRHPTGMYY-NH2 (N-acetyl, C-amide)`, the kcat was 14 ± 1 s⁻¹ (PIM1 (Homo sapiens, UniProt P11309); substrate, coupled enzyme; peptide; pH 7.4, room temperature, added: 1 mM ATP, 20 mM MgCl2).
Under “[3H]peloruside A bound per tubulin”, `C=C1C[C@H](C)C[C@@H]2CC=C[C@@H](C/C=C\C(=O)O[C@H]([C@@H](O)/C=C/[C@@H]3CC(C)=CCO3)C[C@@H]3O[C@H]3[C@@H](O)C1)O2` is recorded as 0.088 ± 0.0023 (microtubules (bovine, glutaraldehyde-fixed); competitor; 25 µM, added: [3H]peloruside A 2.5 µM).
With `Oc1ccc(-c2c(Cl)cc(Cl)cc2Cl)cc1` the detection limit was 2.5 µM (Aequorin-1 C152S/C159S/C187S; aequorin bioluminescence, inhibitor; 2 h, added: coelenterazine).
The fluorescence ratio of `Nc1ncnc2c1ncn2[C@@H]1O[C@H](COP(=O)(O)OP(=O)(O)O)[C@@H](O)[C@H]1O` is reported as 2.6 ± 0.1 (matB (Rhodopseudomonas palustris, UniProt Q6ND88, C106A/K488A/Q457C/R286C); nucleotide binding; 0.5 µM protein, pH 7.0, 20 °C, 10 mM MgCl2; baseline: saturating ligand over no ligand).
`anthraquinone-neomycin` gave an enthalpy difference of -7.8 kcal/mol (poly(dA)·2poly(dT) triplex; ITC; baseline: triplex minus poly(dA)·poly(dT) duplex).
With `Cc1cc(-c2cc(Br)c(-c3cc(C)c(O)c(C)c3)[se]2)cc(C)c1O` the efficacy was 26 ± 2% (ESR1; antagonist; HEK293T; highest tested concentration, added: estradiol 10 nM; baseline: estradiol alone).
The Vmax of `Oc1ccc(-c2cccc(Cl)c2)cc1Cl` is reported as 21.4 ± 18.3 nmol/min/mg (SULT2A1 (Homo sapiens, UniProt Q06520); substrate, HPLC of PAP formation; substrate inhibition fit, added: PAPS 200 µM).
The detection limit of `Oc1c(Cl)cc(-c2ccccc2Cl)cc1Cl` is reported as 40 µM (Aequorin-1 C152S/C159S/C187S; aequorin bioluminescence, inhibitor; 2 h, added: coelenterazine).
`CC(C)(NC(=O)c1nn(Cc2ccc(F)cc2)c2ccccc12)C1CCN(CC(N)=O)CC1` has an Emax of 62 ± 2% (CNR2; calcium mobilization, agonist; CHO-K1 expressing Gαq16; baseline: CP55,940 maximum).
`YFFDRSS (cyclic, disulfide)` has a binding titer of 2.2e+07 M13/mL (HIV-1 neutralising antibody 4E10; phage binding, M13 phage ELISA; peptide; concentration not given; lower = stronger binding).

Repeated from above:
The kcat/Km of `YKKRLTVELT` is reported as 9 ± 6 M⁻¹ s⁻¹ (PAK4 (Homo sapiens, UniProt O96013); kinase activity, substrate; peptide).
The Ks of `O=c1[nH]c(/C=C/C2C=Nc3ccccc32)c([N+](=O)[O-])c(=O)[nH]1` (centres unmarked) is reported as 2.3 ± 0.1 µM (Riboflavin synthase (ribC, Escherichia coli, UniProt P0AFU8); enzyme activity, substrate; Escherichia coli, recombinant riboflavin synthase; pH 7.0).
